# Results pooled from the literature.
# Lines come from different studies, so protocols differ. ± gives the spread as reported.
# Organism: Acinetobacter baumannii
Structure (SMILES),test,system,setting,how to read,measurement,result
COc1ccc2ccc(O)c(/C=N/[C@H]3CCCC[C@H]3/N=C/c3c(C)cccc3O)c2c1,"bacterial growth, broth microdilution",carbapenem-resistant clinical isolate,,,MIC,> 40 µM
CCCCCCCC(=O)N[C@@H](C)C(=O)N[C@H](C(=O)N[C@@H](CCN)C(=O)N[C@H]1CCNC(=O)[C@H]([C@@H](C)O)NC(=O)[C@H](CCN)NC(=O)[C@H](CCN)NC(=O)[C@H](CC(C)C)NC(=O)[C@@H](Cc2ccccc2)NC(=O)[C@H](CCN)NC1=O)[C@@H](C)O,CLSI broth microdilution,"246-01-C.246, CAMHB","20 h, 37 °C",,MIC,128 µg/mL
CC(C)C[C@@H](NC(=O)[C@@H](CC(C)C)NC(=O)[C@@H](CCCCN)NC(=O)[C@@H](CCCCNC(=O)[C@@H](CC(C)C)NC(=O)[C@@H](CC(C)C)NC(=O)[C@@H](CCCCNC(=O)[C@@H](CC(C)C)NC(=O)[C@@H](CCCCN)NC(=O)[C@@H](CCCCNC(=O)[C@@H](CC(C)C)NC(=O)[C@H](N)CCCCN)NC(=O)[C@@H](CC(C)C)NC(=O)[C@H](N)CCCCN)NC(=O)[C@@H](CC(C)C)NC(=O)[C@@H](CCCCN)NC(=O)[C@@H](CCCCNC(=O)[C@@H](CC(C)C)NC(=O)[C@H](N)CCCCN)NC(=O)[C@@H](CC(C)C)NC(=O)[C@H](N)CCCCN)NC(=O)[C@@H](CC(C)C)NC(=O)[C@@H](CC(C)C)NC(=O)[C@@H](CCCCNC(=O)[C@@H](CC(C)C)NC(=O)[C@@H](CCCCN)NC(=O)[C@@H](CCCCNC(=O)[C@@H](CC(C)C)NC(=O)[C@H](N)CCCCN)NC(=O)[C@@H](CC(C)C)NC(=O)[C@H](N)CCCCN)NC(=O)[C@@H](CC(C)C)NC(=O)[C@@H](CCCCN)NC(=O)[C@@H](CCCCNC(=O)[C@@H](CC(C)C)NC(=O)[C@H](N)CCCCN)NC(=O)[C@@H](CC(C)C)NC(=O)[C@H](N)CCCCN)C(N)=O,broth microdilution,ATCC 19606,"20 h, 37 °C",,MIC,8 µg/mL
c1ccc(CSc2nc3ccccc3cc2CNCCC2CCN(C3CCCC3)CC2)cc1,"NADH-driven proton pumping, ACMA quenching",inverted membrane vesicles,2 µg/mL,,inhibition,14%
CN[C@H](CC(C)C)C(=O)N[C@H]1C(=O)N[C@@H](CC(N)=O)C(=O)N[C@H]2C(=O)N[C@H]3C(=O)N[C@H](C(=O)N[C@H](C(=O)NCc4cn(CC(=O)N[C@H](C(=O)N[C@@H](CCN)C(=O)N[C@H]5CCNC(=O)[C@H]([C@@H](C)O)NC(=O)[C@H](CCN)NC(=O)[C@H](CCN)NC(=O)[C@H](CC(C)C)NC(=O)[C@@H](CC(C)C)NC(=O)[C@H](CCN)NC5=O)[C@@H](C)O)nn4)c4cc(O)cc(O)c4-c4cc3ccc4O)[C@H](O)c3ccc(c(Cl)c3)Oc3cc2cc(c3O[C@@H]2O[C@H](CO)[C@@H](O)[C@H](O)[C@H]2O[C@H]2C[C@](C)(N)[C@H](O)[C@H](C)O2)Oc2ccc(cc2Cl)[C@H]1O,broth microdilution,"BAA-747, cation-adjusted Mueller-Hinton broth","18 to 20 h, 37 °C, 0.002% polysorbate 80",,MIC,32 µg/mL
CC(C)C[C@H](NC(=O)[C@H](Cc1ccc(O)cc1)NC(=O)[C@@H]1CCCN1C(=O)[C@H](CCCNC(=N)N)NC(=O)[C@@H]1CCCN1C(=O)[C@H](CCCCN)NC(=O)[C@H](CC(=O)O)NC(=O)[C@@H]1CCCN1C(=O)[C@H](CCCNC(=N)N)NC(=O)C1(N)CCCCC1)C(=O)N1CCC[C@H]1C(=O)N[C@@H](CCCNC(=N)N)C(=O)N1CCC[C@H]1C(=O)N[C@@H](CCCNC(=N)N)C(=O)N1CCC[C@H]1C(=O)N1CCC[C@H]1C(=O)N[C@@H](CCCNC(=N)N)C(=O)N1CCC[C@H]1C(=O)N[C@H](C(=O)N[C@@H](CCCNC(=N)N)C(=O)N[C@@H](CSCc1ccc(CSC[C@H](NC(=O)[C@H](CCCNC(=N)N)NC(=O)[C@@H](NC(=O)[C@@H]2CCCN2C(=O)[C@H](CCCNC(=N)N)NC(=O)[C@@H]2CCCN2C(=O)[C@@H]2CCCN2C(=O)[C@H](CCCNC(=N)N)NC(=O)[C@@H]2CCCN2C(=O)[C@H](CCCNC(=N)N)NC(=O)[C@@H]2CCCN2C(=O)[C@H](CC(C)C)NC(=O)[C@H](Cc2ccc(O)cc2)NC(=O)[C@@H]2CCCN2C(=O)[C@H](CCCNC(=N)N)NC(=O)[C@@H]2CCCN2C(=O)[C@H](CCCCN)NC(=O)[C@H](CC(=O)O)NC(=O)[C@@H]2CCCN2C(=O)[C@H](CCCNC(=N)N)NC(=O)C2(N)CCCCC2)C(C)C)C(=O)NN)cc1)C(=O)NN)C(C)C,"membrane disruption, propidium iodide uptake",19606,"90 min, 37 °C",,MDC,21.1 ± 0.6 µg/mL
Cc1ccnc(-c2cc(C(=O)NCCCCCC(=O)N[C@@H](CCCNC(=N)N)C(=O)N[C@@H](CCCNC(=N)N)C(=O)N[C@@H](Cc3c[nH]c4ccccc34)C(=O)N[C@@H](Cc3c[nH]c4ccccc34)C(=O)N[C@@H](CCCNC(=N)N)C(=O)N[C@@H](Cc3c[nH]c4ccccc34)C(=O)N[C@@H](Cc3c[nH]c4ccccc34)C(=O)N[C@@H](CCCNC(=N)N)C(N)=O)ccn2)c1,colony counting,resistant,"concentration not given, light irradiation",baseline: non-irradiated,log10 CFU reduction,no effect
CC[C@H]1OC(=O)[C@H](C)[C@@H](OC(=O)Cc2c(F)cc([N+](=O)[O-])cc2F)[C@H](C)[C@@H](O[C@@H]2O[C@H](C)C[C@H](N(C)C)[C@H]2O)[C@](C)(OC)C[C@@H](C)C(=O)[C@H](C)[C@@H](O)[C@]1(C)O,microbial growth,ATCC19606,,,MIC,32 µg/mL
CC(C)C[C@H](NC(=O)[C@H](Cc1ccc(O)cc1)NC(=O)[C@@H]1CCCN1C(=O)[C@H](CCCNC(=N)N)NC(=O)[C@@H]1CCCN1C(=O)[C@H](CCCCN)NC(=O)[C@H](CC(=O)O)NC(=O)[C@@H]1CCCN1C(=O)[C@H](CCCNC(=N)N)NC(=O)C1(N)CCCCC1)C(=O)N1CCC[C@H]1C(=O)N[C@@H](CCCNC(=N)N)C(=O)N1CCC[C@H]1C(=O)N[C@@H](CCCNC(=N)N)C(=O)N1CCC[C@H]1C(=O)N1CCC[C@H]1C(=O)N[C@@H](CCCNC(=N)N)C(=O)N1CCC[C@H]1C(=O)N[C@H](C(=O)N[C@@H](CCCNC(=N)N)C(=O)N[C@@H](CSc1c(F)c(F)c(-c2c(F)c(F)c(SC[C@H](NC(=O)[C@H](CCCNC(=N)N)NC(=O)[C@@H](NC(=O)[C@@H]3CCCN3C(=O)[C@H](CCCNC(=N)N)NC(=O)[C@@H]3CCCN3C(=O)[C@@H]3CCCN3C(=O)[C@H](CCCNC(=N)N)NC(=O)[C@@H]3CCCN3C(=O)[C@H](CCCNC(=N)N)NC(=O)[C@@H]3CCCN3C(=O)[C@H](CC(C)C)NC(=O)[C@H](Cc3ccc(O)cc3)NC(=O)[C@@H]3CCCN3C(=O)[C@H](CCCNC(=N)N)NC(=O)[C@@H]3CCCN3C(=O)[C@H](CCCCN)NC(=O)[C@H](CC(=O)O)NC(=O)[C@@H]3CCCN3C(=O)[C@H](CCCNC(=N)N)NC(=O)C3(N)CCCCC3)C(C)C)C(=O)NN)c(F)c2F)c(F)c1F)C(=O)NN)C(C)C,"membrane disruption, propidium iodide uptake",19606,"90 min, 37 °C",,MDC,4.5 ± 0.1 µg/mL
CCN1CCC(CCNCc2cc3ccccc3nc2SCc2ccccc2)CC1,"NADH-driven proton pumping, ACMA quenching",inverted membrane vesicles,2 µg/mL,,inhibition,3%

# For quick reference, copied from above:
Structure (SMILES),test,system,setting,how to read,measurement,result
CN[C@H](CC(C)C)C(=O)N[C@H]1C(=O)N[C@@H](CC(N)=O)C(=O)N[C@H]2C(=O)N[C@H]3C(=O)N[C@H](C(=O)N[C@H](C(=O)NCc4cn(CC(=O)N[C@H](C(=O)N[C@@H](CCN)C(=O)N[C@H]5CCNC(=O)[C@H]([C@@H](C)O)NC(=O)[C@H](CCN)NC(=O)[C@H](CCN)NC(=O)[C@H](CC(C)C)NC(=O)[C@@H](CC(C)C)NC(=O)[C@H](CCN)NC5=O)[C@@H](C)O)nn4)c4cc(O)cc(O)c4-c4cc3ccc4O)[C@H](O)c3ccc(c(Cl)c3)Oc3cc2cc(c3O[C@@H]2O[C@H](CO)[C@@H](O)[C@H](O)[C@H]2O[C@H]2C[C@](C)(N)[C@H](O)[C@H](C)O2)Oc2ccc(cc2Cl)[C@H]1O,broth microdilution,"BAA-747, cation-adjusted Mueller-Hinton broth","18 to 20 h, 37 °C, 0.002% polysorbate 80",,MIC,32 µg/mL
